Measured values from different studies.
Each line is one published result; not all experiments were run side by side. Values joined by “and” are separate records of one study, mostly repeats; a detail may differ. ± gives the spread as reported.
SLCO1B1: Solute carrier organic anion transporter family member 1B1 (SLCO1B1, Homo sapiens, UniProt Q9Y6L6)
Inward rectifier potassium channel 4: Inward rectifier potassium channel 4 (Homo sapiens, UniProt P48050)
Urease: Urease (Canavalia ensiformis, UniProt P07374)
KCNJ13 M125R: Inward rectifier potassium channel 13 (KCNJ13, Homo sapiens, UniProt O60928, M125R)

With OCl the IC50 was 91.8 ± 10 µM (Helix pomatia arylsulfatase; enzyme activity; 1 h, pH 5.8, 37 °C, together with: p-nitrophenyl sulfate).
Nc1nc2c(ncn2[C@@H]2O[C@H](COP(=O)(O)OP(=O)(O)O)[C@@H](O)[C@H]2O)c(=O)[nH]1 gave an IC50 of 58 ± 20 µM (Tubulin alpha-1B chain/TUBB2B (Bos taurus, UniProt P81947+Q6B856); tubulin assembly, inhibitor, turbidimetry; tubulin 30 µM, GTP 5 µM, together with: paclitaxel 30 µM).
The IC50 of CC(O)c1cc(C(=O)N[C@@H](C)Cn2ccc(-c3ccc(C#N)c(Cl)c3)n2)[nH]n1 (stereo partly drawn) is reported as 3.8 µM (SLCO1B1; transporter uptake, inhibitor; with preincubation).
With C[C@@H]1O[C@@H](OC[C@H]2O[C@@H](OCCc3ccc(O)c(O)c3)[C@H](O)[C@@H](O[C@@H]3O[C@@H](C)[C@H](O)[C@@H](O)[C@H]3O)[C@@H]2OC(=O)/C=C/c2ccc(O)c(O)c2)[C@H](O)[C@H](O)[C@H]1O the IC50 was 503 µM (tyrosinase (Agaricus bisporus); enzyme activity; 30 min, pH 6.8, 37 °C, together with: L-DOPA).
CCN(CC)C(=S)S has an IC50 of 16.3 µM (Carbamate kinase (Giardia intestinalis, UniProt A8BB85); enzyme activity, ATP luminescence).
With CO[C@H]1/C=C/O[C@@]2(C)Oc3c(C)c(O)c4c(O)c(c(/C=N/N5CCN(C)CC5)c(O)c4c3C2=O)NC(=O)/C(C)=C\C=C\[C@H](C)[C@H](O)[C@@H](C)[C@@H](O)[C@@H](C)[C@H](OC(C)=O)[C@@H]1C the IC50 was over 10 µM (SLCO1B1; transporter uptake, inhibitor, radiometric; HEK293; 1 h, pH 7.4).
The IC50 of COc1c(O)cc2oc3cc(O)c(CC=C(C)C)c(O)c3c(=O)c2c1CC=C(C)C is reported as 11.5 µM (Sterol carrier protein 2 (Helicoverpa armigera, UniProt K7NSY9); displacement of 1,8-ANS, fluorescence; pH 7.0, 25 °C, together with: 1,8-ANS 15 µM).
CC(C)C[C@H](NC(=O)OCc1ccccc1)C(=O)N[C@@H](CC(C)C)C(=O)N[C@@H](Cc1ccc(O)cc1)C(=O)CF gave an IC50 of 0.0162 µM (Calpain-1 catalytic subunit (CAPN1, Homo sapiens, UniProt P07384); enzyme activity, inhibitor, fluorescence).
For Cc1cc(OCC(O)Cn2c(=N)n(Cc3ccccc3)c3ccccc32)ccc1Br (stereo not drawn), the IC50 was 5.1 µM (Inward rectifier potassium channel 4; ion flux, inhibitor, fluorescence).
CC(/C=C/C(=O)NO)=C\[C@@H](C)C(=O)c1ccc(N(C)C)cc1 has an IC50 of 0.003 to 0.004 µM and < 0.004 µM and 0.0039 µM (histone deacetylase Plasmodium falciparum; Plasmodium falciparum, 3D7, nuclear extract; together with: Ac-RGK(Ac)-AMC substrate).
Cc1cc(OCC(=O)N/N=C/c2ccc(OCc3cn(Cc4ccccc4)nn3)cc2)c2c(C)cc(=O)oc2c1 gave an IC50 of 1.62 ± 0.32 µM (Urease; enzyme activity, inhibitor).
For Cc1cccc(C)c1NC(=S)N1CCc2ccccc2C1, the IC50 was 11.2 µM (Urease; enzyme activity, inhibitor, absorbance).
Cn1cnnc1SCC(=O)C12CC3CC(CC(C3)C1)C2 has an IC50 of over 100 µM (Cytochrome P450 3A4 (CYP3A4, Homo sapiens, UniProt P08684); enzyme activity, inhibitor, fluorescence).
COc1ccc(CCN2CCC(Nc3nc4ccccc4n3Cc3ccc(F)cc3)CC2)cc1 has an IC50 of 0.196 µM and 0.21 µM and ~0.2 µM (Voltage-gated delayed rectifier potassium channel KCNH1 (KCNH1, Homo sapiens, UniProt O95259); potassium current, blocker, whole-cell patch clamp; HEK293 stably transfected; pH 7.4 extracellular, test pulse 80 mV).
With Nc1ncnc2c1ncn2[C@@H]1O[C@H](CSCC[C@H](N)C(=O)O)[C@@H](O)[C@H]1O the IC50 was 0.3 ± 0.1 µM (Histone-lysine N-methyltransferase 2A, tetrameric core complex (KMT2A, Homo sapiens, UniProt Q03164); FL-NAH displacement, fluorescence polarization; 30 min, tetrameric complex, together with: 50 nM FL-NAH).
For C[C@@H](CNCc1ccccc1)N1C[C@H](CCCNC(=N)N)N(CCc2cccc(F)c2)C1=S, the IC50 was over 10 µM (D(1A) dopamine receptor (DRD1, Homo sapiens, UniProt P21728); receptor activation, antagonist, FLIPR).
The IC50 of FC(F)(F)c1ccc(-c2cc(Nc3ccc4ncsc4c3)ncn2)c(NCC2CCCCC2)c1 is reported as 0.0293 ± 0.0124 µM (Transient receptor potential cation channel subfamily V member 1 (Trpv1, Rattus norvegicus, UniProt O35433); capsaicin-induced 45Ca2+ uptake, antagonist; CHO expressing rat TRPV1; pH 7.4, together with: capsaicin 500 nM).
The IC50 of Cn1c2ccccc2c2c3c(c4c5ccccc5n(CCC#N)c4c21)CNC3=O is reported as about 0.25 µM (Leucine-rich repeat serine/threonine-protein kinase 2 (LRRK2, Homo sapiens, UniProt Q5S007); LRRKtide phosphorylation, inhibitor; 25 °C, together with: 1 µM ATP).
N=c1n(Cc2ccccc2)c2ccccc2n1CC(O)COc1ccccc1 (stereo not drawn) has an IC50 of 4.47 µM (KCNJ13 M125R; ion flux, inhibitor).
The IC50 of O=[N+]([O-])c1ccc(N2CCN(S(=O)(=O)c3ccc(F)cc3)CC2)cc1NCc1nc2ccccc2o1 is reported as 6.12 µM (Kir1 channel protein (Aedes aegypti, UniProt L0EQS9); ion flux, inhibitor, fluorescence).
The IC50 of CC(=O)Nc1ncc(O)cn1 is reported as 761 µM (Prostaglandin G/H synthase 1 (PTGS1, Ovis aries, UniProt P05979); enzyme activity, inhibitor; pH 8).
The IC50 of FC(F)(F)Oc1ccc(Oc2ccnc(N3CCC(NC(=S)Nc4cccnc4)CC3)c2Cl)c(Cl)c1 is reported as about 0.09 µM (Lysophosphatidylserine lipase ABHD12 (Homo sapiens, UniProt Q8N2K0); enzyme activity, inhibitor; lysate).
With CN=c1nc(-c2ccccc2)n(-c2ccccc2)s1 the IC50 was over 100 µM (L-aminoadipate-semialdehyde dehydrogenase-phosphopantetheinyl transferase (AASDHPPT, Homo sapiens, UniProt Q9NRN7); phosphopantetheinylation, inhibitor, fluorescence polarization; 45 min, pH 7.6, 10% DMSO, together with: VibB 10 µM and rhodamine-CoA 5 µM).
With CCCC(CCC)C(=O)O the IC50 was over 100 µM (HDAC (Lucilia cuprina egg nuclear extract); enzyme activity, inhibitor, fluorometric).
For NC(=O)[C@@H]1CC[C@@H]2CN1C(=O)N2OS(=O)(=O)O, the IC50 was over 49 µM (dacC (Pseudomonas aeruginosa, UniProt G3XD74); binding, Bocillin FL competition; Pseudomonas aeruginosa 1771 membranes; PBP 5, together with: Bocillin FL 100 µM).
CCNC(CCC(N)C(=O)O)CC1OC(n2cnc3c(N)ncnc32)C(O)C1O (stereo not drawn) has an IC50 of 8.2 ± 1.2 µM (Histone-lysine N-methyltransferase SETD2 (SETD2, Homo sapiens, UniProt Q9BYW2); enzyme activity, inhibitor, radiometric methylation; together with: SAM and peptide at sub-Km).
The IC50 of CCCS(=O)(=O)Nc1ccc(F)c(C(=O)c2c[nH]c3ncc(-c4ccc(Cl)cc4)cc23)c1F is reported as 0.0017 µM (SLCO1B1; substrate uptake, inhibitor; HEK293 overexpressing SLCO1B1; 3 min, 100% human plasma, together with: [3H]-estradiol-17β-glucuronide 5 µM).
For COc1cc2c(cc1OC)-c1cc3ccc4c(c3c[n+]1CC2)OCO4, the IC50 was over 100 µM (Cytochrome P450 1A2 (Cyp1a2, Rattus norvegicus, UniProt P04799); inhibitor).
CC(C)S(=O)(=O)c1cc2c(Nc3ccc4sc(C5CCCC5)nc4c3)ccnc2cc1OCCO has an IC50 of 0.016 µM (Receptor-interacting serine/threonine-protein kinase 3 (RIPK3, Homo sapiens, UniProt Q9Y572); enzyme activity, inhibitor, ADP detection).
Cc1ccccc1NC(=S)N1CCc2ccccc2C1 gave an IC50 of 20.4 µM (Urease; enzyme activity, inhibitor, absorbance).
The IC50 of O=c1cc(-c2cccc3ccccc23)[nH][nH]1 is reported as 3.21 ± 0.168 µM (Alkaline phosphatase, tissue-nonspecific isozyme (ALPL, Homo sapiens, UniProt P05186); enzyme activity, inhibitor, luminescence; together with: 0 M DEA, 50 µM CDP-star).
For O=C(OC[C@H]1OC[C@H](OC(=O)c2cc(O)c(O)c(O)c2)[C@@H](O)[C@@H]1O)c1cc(O)c(O)c(O)c1, the IC50 was 22.6 µM (DNA oxidative demethylase ALKBH2 (ALKBH2, Homo sapiens, UniProt Q6NS38); 3-methylcytosine repair, inhibitor, HPLC; 1 h, 37 °C, together with: ssDNA 16mer 5 µM).
The IC50 of Cc1cccc(Cc2nn(C(C)(C)C)c3ncnc(N)c23)c1 is reported as 2.6 µM (Ephrin type-B receptor 1 (EPHB1, Homo sapiens, UniProt P54762, G703C); phosphorylation in cells, inhibitor, western blot).
For Cc1cc(OCC(=O)N/N=C/c2ccc(OCc3cn(Cc4ccc(F)cc4)nn3)cc2)c2c(C)cc(=O)oc2c1, the IC50 was 16.9 ± 0.68 µM (Urease; enzyme activity, inhibitor).
N#Cc1ccc(F)c(OCC(O)Cn2c(=N)n(Cc3ccccc3)c3ccccc32)c1 (stereo not drawn) has an IC50 of 4.33 µM (KCNJ13 M125R; ion flux, inhibitor).
With CCCC(=O)NCCc1c2n(c3ccc(OC)cc13)CCCc1ccccc1-2 the IC50 was 21.8 µM (Potassium channel subfamily K member 18 (KCNK18, Homo sapiens, UniProt Q7Z418); ion flux, inhibitor).
The IC50 of N=c1n(Cc2ccccc2)c2ccccc2n1CC(O)COc1ccccc1Cl (stereo not drawn) is reported as 4.95 µM (Inward rectifier potassium channel 4; ion flux, inhibitor, fluorescence).
O=C(CCn1nc(Cc2ccccc2)c2ccccc2c1=O)N1CCCCC1 gave an IC50 of 0.0219 µM (Vascular endothelial growth factor receptor 2 (KDR, Homo sapiens, UniProt P35968); enzyme activity, inhibitor).
With N=c1n(Cc2ccccc2)c2ccccc2n1CC(O)COc1cccc(Cl)c1 (stereo not drawn) the IC50 was 5.63 µM (KCNJ13 M125R; ion flux, inhibitor).
With Cc1ccc(Oc2cccc(CC(=O)N3CCNc4nc(C(F)(F)F)ccc4[C@H]3CC(=O)O)c2)cn1 the IC50 was over 3 µM (Gastrin-releasing peptide receptor (Rattus norvegicus, UniProt P52500); ligand displacement, radioligand).
The IC50 of Cc1cc(C)cc(OCC(O)Cn2c(=N)n(Cc3ccccc3)c3ccccc32)c1 (stereo not drawn) is reported as 3.65 µM (Inward rectifier potassium channel 4; ion flux, inhibitor, fluorescence).
With N#CC1=C(N)Oc2c(c(=O)[nH]c3ccccc23)C1c1ccc(OCc2cn(Cc3ccc(Cl)cc3)nn2)cc1 (stereo not drawn) the IC50 was 14.67 ± 0.06 µM (Alpha-glucosidase MAL12 (MAL12, Saccharomyces cerevisiae S288c, UniProt P53341); enzyme activity).

Some of these lines once more:
The IC50 of COc1c(O)cc2oc3cc(O)c(CC=C(C)C)c(O)c3c(=O)c2c1CC=C(C)C is reported as 11.5 µM (Sterol carrier protein 2 (Helicoverpa armigera, UniProt K7NSY9); displacement of 1,8-ANS, fluorescence; pH 7.0, 25 °C, together with: 1,8-ANS 15 µM).
For Cc1cc(OCC(O)Cn2c(=N)n(Cc3ccccc3)c3ccccc32)ccc1Br (stereo not drawn), the IC50 was 5.1 µM (Inward rectifier potassium channel 4; ion flux, inhibitor, fluorescence).
For Cc1cccc(C)c1NC(=S)N1CCc2ccccc2C1, the IC50 was 11.2 µM (Urease; enzyme activity, inhibitor, absorbance).
With N=c1n(Cc2ccccc2)c2ccccc2n1CC(O)COc1cccc(Cl)c1 (stereo not drawn) the IC50 was 5.63 µM (KCNJ13 M125R; ion flux, inhibitor).
Cn1cnnc1SCC(=O)C12CC3CC(CC(C3)C1)C2 has an IC50 of over 100 µM (Cytochrome P450 3A4 (CYP3A4, Homo sapiens, UniProt P08684); enzyme activity, inhibitor, fluorescence).
CCN(CC)C(=S)S has an IC50 of 16.3 µM (Carbamate kinase (Giardia intestinalis, UniProt A8BB85); enzyme activity, ATP luminescence).
